Published values collected from several papers.
Every numbered part comes from another study and shows a few of its results, in no order.

Sample 1
Target: Phosphate system positive regulatory protein PHO4, full length, GST-tagged (PHO4, Saccharomyces cerevisiae, UniProt P07270, residues 1-312)
Method: competition protein-binding microarray
Molecule type: double-stranded DNA, one strand shown
Medium: in vitro
Concentration: 2 µM
Setting: whole 60-bp probe, lowest competitor level
Together with: Cbf1 competitor, 0.05 µM
Reading: higher = stronger binding
Constant ends, left off below: … GTCTTGATTCGCTTGACGCTGCTG
Construct (chain): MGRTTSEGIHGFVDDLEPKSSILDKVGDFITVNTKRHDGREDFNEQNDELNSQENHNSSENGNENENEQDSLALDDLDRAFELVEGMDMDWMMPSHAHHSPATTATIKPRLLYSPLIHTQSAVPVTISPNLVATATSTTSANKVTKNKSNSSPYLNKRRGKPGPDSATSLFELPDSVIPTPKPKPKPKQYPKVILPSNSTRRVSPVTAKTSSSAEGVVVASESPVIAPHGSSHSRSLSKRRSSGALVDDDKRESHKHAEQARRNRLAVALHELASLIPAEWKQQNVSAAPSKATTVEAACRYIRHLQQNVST
| Oligonucleotide | fluorescence intensity [a.u.] |
| --- | --- |
| TTGTTCCTCTGAAAGCACGGGCCGGCGCACTCCAAT | 7100 |
| AGCAATACCTTTCGGCACGTTCTTGAAAATTCCACA | 13800 |
| TTTAATCGCTCTACCCACGTTTTTTTATCCAGTGCT | 14300 |
| CTTTCCCGATCTTGTGAGGTGGGTGTAGCACATTTG | 4960 |
| AAATTACTAAGTTGTAGGGTGGGTGACGCCGTATGA | 4080 |
| CTAACGAAGGTTTGTCACTACACTTACAAGCCAAGT | 4180 |
| TATTCAAGATCCTGCAACGTGCCAGGGACTCTCAAT | 15200 |
| CTAACGAAGGTTTGTCACATGACTTACAAGCCAAGT | 6390 |

Sample 2
Target: RNA binding protein fox-1 homolog 2, RRM domain, GST-SBP tag (RBFOX2, Homo sapiens, UniProt O43251-10, residues 100-194)
Method: RNA Bind-n-Seq
Molecule type: RNA
Medium: in vitro
Concentration: 365 nM
Setting: natural RNA segment, single round, ends assumed
Baseline: no-protein control
Reading: higher = stronger binding
Constant ends, left off below: GGGAGUUCUACAGUCCGACGAUC … UGGAAUUCUCGGGUGCCAA
Residues (chain): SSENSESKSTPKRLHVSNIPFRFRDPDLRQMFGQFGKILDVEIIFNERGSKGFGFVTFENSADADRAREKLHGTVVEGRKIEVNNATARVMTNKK
| Oligonucleotide | RBNS enrichment (R) |
| --- | --- |
| UCAGCACCAGGCCUGUAUAACGUGGUUCUCACGUUACCCUGGCAGCAUACAGGAUGGGGAGUCUGGUGUAUUCAGUGUUCACAGUCAGCAGACAUGGUGACCUGGUGGGA | 0.327 |
| UAAGUAAAGAAAGACAAUUGGACCCUUAAGAAUUUAUGCAUUUGUAAAGUUGCUGUUGAUCCAAAUAUUUUCAAGCCAUGUAAUCCAUUGGUUUUGUGGGCAGUUUAAUA | 1.36 |
| GUCCAGGAGAAACCUAAAGACAUAAUACAGUUCACUGCCGAGAAGCUCUCUGUGGGGGAAGUGUCACAGUUGGUGGUGUCCCCUCUGUGUGGUGCAGUGUCUCUCUUUGU | 0.489 |
| AAUAAAAUAACUAGAGGGAAACUUGGAUGCUAAAAUUCCAUAAGUAGAAAAAUCUUCCUGGCACUUGGUGUUUCUAUGUUAUUGAAAAAUGAUGUUCCAGAAAGAUUACU | 0.554 |
| GACCCCAUAACGACGUCCCACAAAAUGGAAAUAAAACGCAAAAUCUCUUUAGCAUUGUGUAAAUAAAUCUGGAUGUGUUUAACUUUGUACUGGUAAUUUUCUGUAUAUUU | 1.56 |
| CUUUACGCAUCAGCUGCCUUAGACAGCUUCUAGAAAGGAGCGAGCGCUACUUCUUAAGUACUUAAGUGACAUUUAGAUAAUUUAUAGUAAAACUGAAAUUAUUAUUAGCC | 0.568 |
| AUGUCACUGCUGCACUCGCUAAGCAGGGCUUGUGAUAUUUCUCAUUUAGCAUUGAAAUAAUAAUAUUUAGGCAUGAGCUCUUGGCAGGAGUGGGCUCUGAGCAGUUGUUA | 1.37 |
| UGAACUUGUUUUAUAUUUGCAUAUCAAGAGUCAAGUAUGAUGUUUCUUUAAGUUGACUUUUUUUACUUCAUUAUUUUUAGGAAUAAAUGUAAGAUUUUACAAAUCUUUUA | 1.03 |
| CUUGAAAUUCAUUGGUCUAGUUGUAAUUUUUAUACAAAUUACACCAAGAGAUAAGAUGUCUUUUUUUUACAGAAGUGUAAUAGUCACAGUGCCGCUUAUAGGCUGCACGC | 0.298 |

Sample 3
Target: Sal-like protein 4, full length isoform B (SALL4, Homo sapiens, UniProt Q9UJQ4-2, residues 1-616)
Method: universal PBM
Molecule type: double-stranded DNA, one strand shown
Medium: in vitro
Concentration: not given
Setting: 8-mer, flanks averaged, mean of replicates
Reading: higher = stronger binding
Construct (chain): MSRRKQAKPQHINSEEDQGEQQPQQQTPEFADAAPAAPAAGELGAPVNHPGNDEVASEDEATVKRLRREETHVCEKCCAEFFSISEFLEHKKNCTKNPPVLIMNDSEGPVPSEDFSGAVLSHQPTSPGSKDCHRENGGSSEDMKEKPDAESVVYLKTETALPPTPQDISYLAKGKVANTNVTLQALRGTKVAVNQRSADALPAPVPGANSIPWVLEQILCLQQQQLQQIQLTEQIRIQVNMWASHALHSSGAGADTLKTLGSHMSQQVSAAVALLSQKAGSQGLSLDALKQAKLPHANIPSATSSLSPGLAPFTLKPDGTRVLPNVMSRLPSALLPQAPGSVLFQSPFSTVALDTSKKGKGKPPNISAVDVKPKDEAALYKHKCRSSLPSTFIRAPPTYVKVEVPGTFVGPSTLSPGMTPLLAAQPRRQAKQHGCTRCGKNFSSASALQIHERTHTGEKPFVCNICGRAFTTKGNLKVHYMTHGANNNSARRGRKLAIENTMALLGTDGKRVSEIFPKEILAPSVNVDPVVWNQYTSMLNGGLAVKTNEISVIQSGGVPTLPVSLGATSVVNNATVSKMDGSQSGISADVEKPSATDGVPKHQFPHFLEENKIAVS
| Oligonucleotide | E-score |
| --- | --- |
| CCTGATCC | -0.173 |
| CCTCGAGG | -0.192 |
| CAATTGTC | 0.0373 |
| CGTTAGCA | 0.0151 |
| CGCGATGA | -0.0136 |
| ATTGCCGA | -0.0285 |

Single results of other studies
| Substance | target | assay | test system | setting | how to read | quantity | value |
| --- | --- | --- | --- | --- | --- | --- | --- |
| PhoQ, residues 284 288 289 292 302 303 SVTLVV | PhoP, residues 12 14 15 18 19 LYFRQ (Escherichia coli, UniProt P23836) | Sort-seq, refers to: YFP reporter | E. coli | PhoQ-PhoP variant library, together with: 10 µM Mg2+ | baseline: high Mg2+ state, higher = stronger signaling | fold induction | 2.99 |

A few entries again (sample 2):
| Oligonucleotide | RBNS enrichment (R) |
| --- | --- |
| UAAGUAAAGAAAGACAAUUGGACCCUUAAGAAUUUAUGCAUUUGUAAAGUUGCUGUUGAUCCAAAUAUUUUCAAGCCAUGUAAUCCAUUGGUUUUGUGGGCAGUUUAAUA | 1.36 |
| GUCCAGGAGAAACCUAAAGACAUAAUACAGUUCACUGCCGAGAAGCUCUCUGUGGGGGAAGUGUCACAGUUGGUGGUGUCCCCUCUGUGUGGUGCAGUGUCUCUCUUUGU | 0.489 |
| AAUAAAAUAACUAGAGGGAAACUUGGAUGCUAAAAUUCCAUAAGUAGAAAAAUCUUCCUGGCACUUGGUGUUUCUAUGUUAUUGAAAAAUGAUGUUCCAGAAAGAUUACU | 0.554 |
